# Measurements collected from several papers.
# Protocols differ between the studies behind these lines.
# Organism: Pseudomonas aeruginosa
Compound,technique,strain,sample,time,temperature,MIC
CC[C@H](C)CCCCC(=O)N[C@@H](CCN)C(=O)N[C@H](C(=O)N[C@@H](CCN)C(=O)N[C@H]1CCNC(=O)[C@H]([C@@H](C)O)NC(=O)[C@H](CCN)NC(=O)[C@H](CCN)NC(=O)[C@H](CC(C)C)NC(=O)[C@@H](Cc2ccccc2)NC(=O)[C@H](CCN)NC1=O)[C@@H](C)O,broth microdilution,PAO1,CAMHB,24 h,37 °C,2 µg/mL
CC(C)C[C@H](NC(=O)[C@H](CCCNC(=N)N)NC(=O)[C@H](CO)NC(=O)[C@H](CC(=O)O)NC(=O)[C@H](Cc1ccccc1)NC(=O)[C@H](CCCNC(=N)N)NC(=O)[C@H](Cc1c[nH]c2ccccc12)NC(=O)[C@@H](N)CCC(=O)O)C(=O)N[C@@H](C)C(=O)N[C@@H](Cc1ccccc1)C(=O)N[C@@H](Cc1c[nH]cn1)C(=O)N[C@@H](Cc1c[nH]cn1)C(=O)N[C@H](C(=O)N[C@@H](C)C(=O)N[C@@H](CCCNC(=N)N)C(=O)N[C@@H](CCC(=O)O)C(=O)N[C@@H](CC(C)C)C(=O)N[C@@H](Cc1c[nH]cn1)C(=O)N1CCC[C@H]1C(=O)N[C@@H](CCC(=O)O)C(=O)O)C(C)C,broth microdilution,PTCC 1074,,overnight,37 °C,20 µM
CC(C)C[C@H](NC(=O)[C@H](C)NC(=O)CNC(=O)[C@H](CC(C)C)NC(=O)[C@H](CC(C)C)NC(=O)[C@H](CCCCN)NC(=O)[C@H](CCCCN)NC(=O)[C@H](CC(C)C)NC(=O)[C@H](CC(C)C)NC(=O)[C@H](CCCCN)NC(=O)[C@H](CC(C)C)NC(=O)[C@H](CC(C)C)NC(=O)[C@@H](N)CCCCN)C(=O)NCC(N)=O,,ATCC 19606,CAMHB,18 h,37 °C,21 µM
CC[C@H](C)[C@H](N)C(=O)N[C@@H](CC(C)C)C(=O)NCC(=O)N1CCC[C@H]1C(=O)N[C@H](C(=O)N[C@@H](CC(C)C)C(=O)NCC(=O)N[C@@H](CC(C)C)C(=O)N[C@H](C(=O)N[C@@H](CO)C(=O)N[C@@H](CC(=O)O)C(=O)N[C@H](C(=O)N[C@@H](CC(C)C)C(=O)N[C@@H](CC(=O)O)C(=O)N[C@@H](CC(=O)O)C(=O)N[C@H](C(=O)N[C@@H](CC(C)C)C(=O)NCC(=O)N[C@H](C(=O)N[C@@H](CC(C)C)C(=O)O)[C@@H](C)CC)C(C)C)[C@@H](C)O)C(C)C)C(C)C,,ATCC 27853,,24 h,37 °C,90 µM
CC[C@H](C)[C@H](NC(=O)[C@H](CCCCN)NC(=O)[C@H](CC(C)C)NC(=O)[C@H](CC(C)C)NC(=O)[C@H](C)NC(=O)CNC(=O)[C@H](CC(C)C)NC(=O)[C@@H](N)Cc1ccccc1)C(=O)NCC(=O)N[C@@H](C)C(=O)N[C@@H](CCCCN)C(=O)N[C@@H](CC(C)C)C(=O)N[C@@H](CC(C)C)C(=O)N1CCC[C@H]1C(=O)N[C@@H](CO)C(=O)N[C@H](C(=O)N[C@H](C(=O)NCC(=O)N[C@@H](CC(C)C)C(=O)N[C@@H](Cc1ccccc1)C(=O)N[C@@H](CCCCN)C(=O)N[C@@H](CCCCN)C(=O)N[C@@H](CCCCN)C(=O)N[C@@H](CCC(N)=O)C(=O)N[C@@H](CCC(N)=O)C(=O)O)C(C)C)C(C)C,broth microdilution,ATCC 27853,,20 h,37 °C,> 40 µM
CC[C@H](C)[C@H](NC(=O)[C@H](Cc1c[nH]cn1)NC(=O)[C@H](Cc1c[nH]cn1)NC(=O)[C@H](Cc1ccccc1)NC(=O)[C@@H](N)Cc1ccccc1)C(=O)N[C@@H](Cc1ccccc1)C(=O)N[C@@H](CCCNC(=N)N)C(=O)NCC(=O)N[C@@H](C)C(=O)N[C@H](C(=O)N[C@@H](Cc1c[nH]cn1)C(=O)N[C@H](C(=O)NCC(=O)N[C@@H](CCCCN)C(=O)N[C@H](C(=O)N[C@H](C(=O)N[C@@H](Cc1c[nH]cn1)C(=O)N[C@@H](CCCNC(=N)N)C(=O)N[C@@H](CC(C)C)C(=O)N[C@H](C(=O)N[C@H](C(=O)NCC(N)=O)[C@@H](C)O)C(C)C)[C@@H](C)CC)[C@@H](C)O)C(C)C)C(C)C,broth microdilution,ATCC 10662,,18 h,37 °C,25 µg/mL
CC[C@H](C)[C@H](NC(=O)[C@H](C)NC(=O)[C@@H](NC(=O)[C@H](C)NC(=O)CN)[C@@H](C)O)C(=O)N[C@@H](CCCCN)C(=O)N[C@@H](CCC(N)=O)C(=O)N[C@H](C(=O)N[C@@H](CCCCN)C(=O)N[C@@H](CCCCN)C(=O)N[C@@H](CC(C)C)C(=O)N[C@@H](Cc1ccccc1)C(=O)N[C@@H](CCCCN)C(=O)N[C@@H](CCCCN)C(=O)N[C@@H](CCCCN)C(=O)NCC(=O)NCC(N)=O)C(C)C,broth microdilution,ATCC 9027,,24 h,37 °C,310 µM
C[C@H](N)C(=O)N[C@@H](CS)C(=O)N1CCC[C@H]1C(=O)N[C@@H](Cc1c[nH]cn1)C(=O)N[C@@H](CCCNC(=N)N)C(=O)N[C@@H](CS)C(=O)O,broth microdilution,MTCC 1688,,,37 °C,50 µg/mL
O=[N+]([O-])c1ccc(Sc2nc3ccccc3s2)c([N+](=O)[O-])c1,,ATCC 29853,,,,> 500 µg/mL
CC(C)[C@H](N)C(=O)N[C@@H](CS)C(=O)N1CCC[C@H]1C(=O)N[C@@H](Cc1c[nH]cn1)C(=O)N[C@@H](CCCNC(=N)N)C(=O)N[C@@H](CS)C(=O)O,broth microdilution,MTCC 1688,,,37 °C,50 µg/mL
CC[C@H](C)[C@H](NC(=O)[C@H](CC(=O)O)NC(=O)[C@H](Cc1ccccc1)NC(=O)[C@H](CC(C)C)NC(=O)CN)C(=O)N[C@H](C(=O)N[C@@H](CCCCN)C(=O)N[C@@H](CCCCN)C(=O)N[C@H](C(=O)N[C@H](C(=O)N[C@@H](CCCCN)C(=O)N[C@@H](CC(C)C)C(=O)N[C@@H](CC(C)C)C(=O)N[C@@H](CCCCN)C(N)=O)C(C)C)C(C)C)C(C)C,,ATCC 19606,CAMHB,18 h,37 °C,> 20 µM

# Excerpt of the above:
Compound,technique,strain,sample,time,temperature,MIC
CC[C@H](C)[C@H](NC(=O)[C@H](C)NC(=O)[C@@H](NC(=O)[C@H](C)NC(=O)CN)[C@@H](C)O)C(=O)N[C@@H](CCCCN)C(=O)N[C@@H](CCC(N)=O)C(=O)N[C@H](C(=O)N[C@@H](CCCCN)C(=O)N[C@@H](CCCCN)C(=O)N[C@@H](CC(C)C)C(=O)N[C@@H](Cc1ccccc1)C(=O)N[C@@H](CCCCN)C(=O)N[C@@H](CCCCN)C(=O)N[C@@H](CCCCN)C(=O)NCC(=O)NCC(N)=O)C(C)C,broth microdilution,ATCC 9027,,24 h,37 °C,310 µM
